Published values pooled from the literature.
A part holds a random share of what one study measured. Positions count from the first letter of the parent shown.

Block 1
Target: Histone acetyltransferase KAT6A, both winged helices, GST fusion (KAT6A, Homo sapiens, UniProt Q92794, residues 1-181)
Method: protein binding microarray
Molecule type: double-stranded DNA, one strand shown
Sample: in vitro
Concentration: not given
Setting: 8-mer, flanks averaged, mean of 2 arrays, mostly near background
Reference: not given
Direction: higher = stronger binding
Residues (chain): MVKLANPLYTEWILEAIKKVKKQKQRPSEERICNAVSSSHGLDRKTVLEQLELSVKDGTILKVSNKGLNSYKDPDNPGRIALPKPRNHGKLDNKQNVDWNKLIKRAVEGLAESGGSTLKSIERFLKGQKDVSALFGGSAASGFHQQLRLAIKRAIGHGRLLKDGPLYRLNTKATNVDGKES
Sequence	E-score
ATCAACCG	0.0869
CCGCAGAG	0.0706
GGTTATCA	-0.168
AGTGACCG	0.099
ACTGAACT	-0.0408
TGGGCTAA	-0.112
GCGGCCCC	0.163
AACTGTCG	0.0289

Block 2
Target: NFIL3, bZIP domain (human)
Method: DHFR protein complementation
Sample: yeast
Setting: single substitutions, most at no-binding floor
Reference: wild-type JUN-FOS pair
Direction: higher = stronger binding
Starting sequence: JUN, bZIP domain (human); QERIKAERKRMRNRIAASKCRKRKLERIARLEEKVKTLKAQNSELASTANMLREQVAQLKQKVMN; partner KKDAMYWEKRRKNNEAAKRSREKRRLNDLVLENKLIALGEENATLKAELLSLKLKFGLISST
Variant	binding fitness [natural log]
R30I	-1.54
E44L	-1.38
L59H	-1.47
L38W	-1.43
R30H	-1.5
T37R	-1.46
N42Y	-1.56
V56L	-1.45

Other studies, line by line
Substance	target or system	test	test system	conditions	scale	endpoint	result
PhoQ, residues 284 288 289 292 302 303 TTCLQL	PhoP, residues 12 14 15 18 19 LHATL (Escherichia coli, UniProt P23836)	Sort-seq, measured: YFP reporter	E. coli	PhoQ-PhoP variant library, added: 10 µM Mg2+	reference: high Mg2+ state, higher = stronger signaling	fold induction	1.93
O=C(c1ccc2cccnn12)N1C[C@@H](Cc2ccccc2)[C@H](O)C1	–	–	human, microsomes or S9	2 µM, 0.5 h	–	remaining compound	42.1%

For quick reference, copied from above (block 1):
Sequence	E-score
ACTGAACT	-0.0408
TGGGCTAA	-0.112
